Published values gathered from unrelated publications.
Numbered parts are unrelated; each lists some results of a single study.
Chain of UniProt Q06187 (whole entry, looked up): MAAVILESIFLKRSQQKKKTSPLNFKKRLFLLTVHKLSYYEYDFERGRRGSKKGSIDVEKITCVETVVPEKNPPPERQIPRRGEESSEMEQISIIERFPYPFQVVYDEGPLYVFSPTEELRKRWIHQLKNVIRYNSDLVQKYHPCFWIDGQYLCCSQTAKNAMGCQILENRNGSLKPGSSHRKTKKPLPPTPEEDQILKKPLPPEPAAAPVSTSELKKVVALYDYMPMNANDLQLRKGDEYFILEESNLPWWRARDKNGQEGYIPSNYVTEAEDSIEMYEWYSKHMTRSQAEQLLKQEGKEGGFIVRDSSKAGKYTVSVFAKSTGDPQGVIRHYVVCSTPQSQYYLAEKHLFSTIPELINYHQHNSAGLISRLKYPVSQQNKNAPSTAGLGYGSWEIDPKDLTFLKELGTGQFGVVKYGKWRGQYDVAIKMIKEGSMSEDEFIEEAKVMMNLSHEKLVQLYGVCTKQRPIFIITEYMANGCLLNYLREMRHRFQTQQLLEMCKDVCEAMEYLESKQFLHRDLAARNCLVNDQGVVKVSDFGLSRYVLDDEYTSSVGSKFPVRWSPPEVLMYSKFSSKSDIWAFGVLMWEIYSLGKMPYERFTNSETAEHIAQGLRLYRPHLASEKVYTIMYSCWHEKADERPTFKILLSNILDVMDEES
Chain of UniProt P10721 (whole entry, looked up): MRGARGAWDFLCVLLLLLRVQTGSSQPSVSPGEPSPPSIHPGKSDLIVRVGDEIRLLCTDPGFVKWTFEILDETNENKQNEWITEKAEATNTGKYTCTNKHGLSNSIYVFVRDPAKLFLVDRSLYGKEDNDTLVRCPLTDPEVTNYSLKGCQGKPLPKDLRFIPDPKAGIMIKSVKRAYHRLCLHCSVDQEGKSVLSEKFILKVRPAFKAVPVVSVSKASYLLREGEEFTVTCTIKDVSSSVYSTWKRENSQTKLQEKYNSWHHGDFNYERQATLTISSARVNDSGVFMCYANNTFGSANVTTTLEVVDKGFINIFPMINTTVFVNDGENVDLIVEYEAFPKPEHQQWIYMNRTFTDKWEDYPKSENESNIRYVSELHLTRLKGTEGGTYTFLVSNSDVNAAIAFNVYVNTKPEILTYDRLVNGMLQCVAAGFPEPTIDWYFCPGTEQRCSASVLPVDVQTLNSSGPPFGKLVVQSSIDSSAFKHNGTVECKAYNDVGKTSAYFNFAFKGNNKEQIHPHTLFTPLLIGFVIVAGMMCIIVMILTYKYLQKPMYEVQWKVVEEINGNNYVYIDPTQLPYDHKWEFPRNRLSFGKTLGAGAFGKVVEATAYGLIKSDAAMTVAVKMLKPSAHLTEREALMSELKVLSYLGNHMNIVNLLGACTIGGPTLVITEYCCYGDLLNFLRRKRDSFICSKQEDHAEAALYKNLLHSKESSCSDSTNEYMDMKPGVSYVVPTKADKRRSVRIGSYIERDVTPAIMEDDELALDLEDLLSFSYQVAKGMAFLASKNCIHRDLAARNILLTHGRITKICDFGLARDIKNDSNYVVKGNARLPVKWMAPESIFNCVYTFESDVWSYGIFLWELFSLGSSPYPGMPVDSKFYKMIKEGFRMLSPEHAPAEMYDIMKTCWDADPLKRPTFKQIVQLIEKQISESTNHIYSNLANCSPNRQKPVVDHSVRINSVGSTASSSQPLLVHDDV
Chain of UniProt P51957 (whole entry, looked up): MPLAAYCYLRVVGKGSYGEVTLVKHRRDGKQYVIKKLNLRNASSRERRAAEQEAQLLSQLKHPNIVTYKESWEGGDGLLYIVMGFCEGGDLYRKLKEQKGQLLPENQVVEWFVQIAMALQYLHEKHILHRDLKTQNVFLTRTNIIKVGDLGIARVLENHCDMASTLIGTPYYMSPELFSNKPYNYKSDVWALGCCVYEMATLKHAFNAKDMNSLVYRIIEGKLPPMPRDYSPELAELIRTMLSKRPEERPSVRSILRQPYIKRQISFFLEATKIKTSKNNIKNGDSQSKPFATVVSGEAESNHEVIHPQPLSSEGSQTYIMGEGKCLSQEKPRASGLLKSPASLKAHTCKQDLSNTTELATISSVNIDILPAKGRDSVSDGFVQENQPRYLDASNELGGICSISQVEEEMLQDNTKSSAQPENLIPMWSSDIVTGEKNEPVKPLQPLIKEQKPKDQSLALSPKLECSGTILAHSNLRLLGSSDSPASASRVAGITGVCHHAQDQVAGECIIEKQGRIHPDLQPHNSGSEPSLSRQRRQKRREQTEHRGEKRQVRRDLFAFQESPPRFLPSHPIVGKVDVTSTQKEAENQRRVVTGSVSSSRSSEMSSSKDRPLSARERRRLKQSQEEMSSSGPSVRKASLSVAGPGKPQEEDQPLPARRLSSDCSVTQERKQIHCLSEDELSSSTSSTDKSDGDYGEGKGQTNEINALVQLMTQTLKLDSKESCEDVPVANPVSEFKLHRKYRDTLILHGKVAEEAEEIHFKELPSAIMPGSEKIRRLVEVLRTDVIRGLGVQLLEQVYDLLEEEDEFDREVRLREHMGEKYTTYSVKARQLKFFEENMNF
Chain of UniProt P48729 (whole entry, looked up): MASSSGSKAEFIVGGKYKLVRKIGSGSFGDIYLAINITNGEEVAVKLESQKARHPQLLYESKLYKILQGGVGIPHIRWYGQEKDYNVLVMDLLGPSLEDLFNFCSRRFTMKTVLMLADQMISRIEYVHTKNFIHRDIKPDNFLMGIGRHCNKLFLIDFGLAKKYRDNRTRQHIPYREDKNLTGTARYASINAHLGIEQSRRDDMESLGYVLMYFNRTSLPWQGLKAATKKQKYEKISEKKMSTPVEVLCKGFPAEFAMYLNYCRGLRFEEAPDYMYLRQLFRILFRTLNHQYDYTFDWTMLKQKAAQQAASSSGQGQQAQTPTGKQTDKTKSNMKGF
Chain of UniProt Q9NYY3 (whole entry, looked up): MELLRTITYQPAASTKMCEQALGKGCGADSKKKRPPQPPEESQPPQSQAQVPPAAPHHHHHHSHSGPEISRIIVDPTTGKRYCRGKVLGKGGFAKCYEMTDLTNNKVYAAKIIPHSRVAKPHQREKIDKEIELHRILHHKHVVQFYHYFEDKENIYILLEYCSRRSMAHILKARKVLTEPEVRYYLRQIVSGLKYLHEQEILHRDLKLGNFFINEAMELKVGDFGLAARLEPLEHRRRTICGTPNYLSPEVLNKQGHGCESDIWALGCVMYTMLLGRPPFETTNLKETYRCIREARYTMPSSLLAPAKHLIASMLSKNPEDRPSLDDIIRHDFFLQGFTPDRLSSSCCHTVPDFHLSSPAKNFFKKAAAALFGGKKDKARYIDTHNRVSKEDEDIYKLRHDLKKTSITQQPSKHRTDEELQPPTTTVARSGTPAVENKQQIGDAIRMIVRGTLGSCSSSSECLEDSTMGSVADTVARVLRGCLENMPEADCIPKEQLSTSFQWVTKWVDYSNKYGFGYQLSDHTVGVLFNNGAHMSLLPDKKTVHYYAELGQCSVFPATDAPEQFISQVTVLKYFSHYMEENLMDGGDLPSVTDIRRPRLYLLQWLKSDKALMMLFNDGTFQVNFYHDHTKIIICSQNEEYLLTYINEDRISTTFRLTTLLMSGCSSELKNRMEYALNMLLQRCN
Chain of UniProt Q09013 (whole entry, looked up): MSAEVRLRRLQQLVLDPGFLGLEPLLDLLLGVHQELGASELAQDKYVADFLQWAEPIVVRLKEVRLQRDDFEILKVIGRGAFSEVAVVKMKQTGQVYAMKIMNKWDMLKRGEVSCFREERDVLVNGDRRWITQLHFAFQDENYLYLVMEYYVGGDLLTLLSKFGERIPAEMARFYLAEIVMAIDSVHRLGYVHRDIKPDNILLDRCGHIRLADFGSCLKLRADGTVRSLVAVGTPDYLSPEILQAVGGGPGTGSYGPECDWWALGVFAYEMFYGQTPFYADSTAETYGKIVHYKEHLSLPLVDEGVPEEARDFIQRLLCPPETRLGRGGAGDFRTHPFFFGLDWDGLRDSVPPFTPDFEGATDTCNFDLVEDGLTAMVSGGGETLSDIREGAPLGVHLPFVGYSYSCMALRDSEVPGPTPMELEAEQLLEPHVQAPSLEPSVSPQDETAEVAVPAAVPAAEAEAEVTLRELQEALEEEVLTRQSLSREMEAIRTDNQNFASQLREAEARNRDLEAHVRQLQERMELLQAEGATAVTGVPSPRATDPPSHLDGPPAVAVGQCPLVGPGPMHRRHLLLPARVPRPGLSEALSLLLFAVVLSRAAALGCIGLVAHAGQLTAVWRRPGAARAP
Chain of UniProt Q9NWZ3 (whole entry, looked up): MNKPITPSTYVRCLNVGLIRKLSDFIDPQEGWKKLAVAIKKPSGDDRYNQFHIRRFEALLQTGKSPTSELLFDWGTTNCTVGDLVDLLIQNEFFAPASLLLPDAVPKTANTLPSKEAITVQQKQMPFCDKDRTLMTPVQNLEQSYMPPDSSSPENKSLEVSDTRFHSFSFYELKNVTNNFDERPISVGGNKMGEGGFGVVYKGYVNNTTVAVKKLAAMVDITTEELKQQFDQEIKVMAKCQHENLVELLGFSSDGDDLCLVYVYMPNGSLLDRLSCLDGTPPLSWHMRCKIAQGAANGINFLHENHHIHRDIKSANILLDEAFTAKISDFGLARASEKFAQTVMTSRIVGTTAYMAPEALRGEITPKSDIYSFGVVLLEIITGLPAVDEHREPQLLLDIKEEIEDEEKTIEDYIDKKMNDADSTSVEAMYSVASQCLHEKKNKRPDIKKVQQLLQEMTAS
Chain of UniProt Q15831 (whole entry, looked up): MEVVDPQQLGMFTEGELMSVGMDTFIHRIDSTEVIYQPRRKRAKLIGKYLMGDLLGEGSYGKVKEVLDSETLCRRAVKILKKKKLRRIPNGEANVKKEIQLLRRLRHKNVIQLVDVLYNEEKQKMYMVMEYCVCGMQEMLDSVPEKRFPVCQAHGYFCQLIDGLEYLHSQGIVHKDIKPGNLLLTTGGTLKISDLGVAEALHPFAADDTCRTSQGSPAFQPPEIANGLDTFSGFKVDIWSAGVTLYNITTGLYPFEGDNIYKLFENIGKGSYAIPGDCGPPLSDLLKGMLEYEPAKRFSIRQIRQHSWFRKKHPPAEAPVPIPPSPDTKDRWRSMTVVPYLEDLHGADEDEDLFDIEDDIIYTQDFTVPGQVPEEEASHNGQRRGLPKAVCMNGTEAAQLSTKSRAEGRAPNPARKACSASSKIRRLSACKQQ

Series 1
Compound: CC(C)n1cnc(-c2ccc(F)cc2)c1-c1ncc(C(=O)Nc2ccc(N3CCN(C)CC3)cc2)[nH]1
Method: phase 2a trial
Host: idiopathic pulmonary fibrosis patients
The “patients with arrhythmia” was 0% (dose not given, adverse event grade 4, all dose arms pooled).
The “patients with arrhythmia” was 0% (60 mg once daily, adverse event grade 4).
For dose not given, adverse event grade 1, all dose arms pooled: “patients with arrhythmia” read 0%.
30 mg once daily, adverse event grade 1 — “patients with arrhythmia”: 0%.
It gave 0% for “patients with arrhythmia” (dose not given, adverse event grade 2, all dose arms pooled).
For dose not given, adverse event grade 3, all dose arms pooled: “patients with arrhythmia” read 0%.
The “patients with arrhythmia” was 0% (dose not given, adverse event grade 5, all dose arms pooled).
For 60 mg once daily, adverse event grade 2: “patients with arrhythmia” read 0%.
The “patients with arrhythmia” was 0% (60 mg once daily, adverse event grade 5).

Series 2
Host: mouse
Sample: microsomes or S9
Tested at: 2 µM
Time: 0.5 h
The remaining compound of `O=C(c1c(OCC2CC2)cc(=O)n2c1CCOCC2)N1CCN(c2ccccc2)CC1` is reported as 41%.
For `Cc1ccc(S(=O)(=O)NCc2ccccc2)c(C)c1N(C)S(=O)(=O)c1ccccc1`, the remaining compound was 4.56%.
With `COc1cc2c(Nc3cccc(Br)c3)ncnc2cc1OCC1CNCCO1` (stereo not shown) the remaining compound was > 99.9%.
With `CC(C)(C)C(=O)N1CCC(C(=O)OCc2ccc(C(N)=O)cc2)CC1` the remaining compound was 0.0507%.
With `CC(=O)c1c([S+]([O-])CCC(C)C)[nH]c2c(Cc3ccccc3)cccc2c1=O` (stereo not shown) the remaining compound was 0.669%.
The remaining compound of `COCCNc1nc(N2CCCC2)nc2nccnc12` is reported as 10.3%.
With `CCOC(=O)c1[nH]c(C)c(C(=O)Nc2n[nH]c3cc(Br)ccc23)c1C` the remaining compound was 17.8%.
`COc1c(C)c2c(c(OC)c1C/C=C(\C)CCC(=O)N1CCOCC1)C(=O)OC2` has a remaining compound of 0.132%.
With `CCOC(=O)c1ccc(Nc2nc3ccccc3n3cnnc23)cc1` the remaining compound was 20%.
With `CCC[C@@H]1CN(c2nc(N(C)C)nc3c2CCCC3)C[C@H]1NS(C)(=O)=O` the remaining compound was 37.4%.

Series 3
SMILES: CC(C)n1cnc2c(Nc3cccc(Cl)c3)nc(NCCO)nc21
Observed: enzyme activity
Mode: inhibitor
Tested at: 0.5 µM
Reference: control
The remaining activity was 93.6% (WNK2 (Homo sapiens, UniProt Q9Y3S1)).
For PRKCI (Homo sapiens, UniProt P41743): remaining activity read 101%.
It gave 80.2% for remaining activity (LYN (Homo sapiens, UniProt P07948)).
For PRKG1 (Homo sapiens, UniProt Q13976): remaining activity read 92.2%.
The remaining activity was 62.4% (CSNK1A1 (Homo sapiens, UniProt P48729)).
For MKNK2 (Homo sapiens, UniProt Q9HBH9): remaining activity read 94.8%.
For CSNK2A1 (Homo sapiens, UniProt P68400): remaining activity read 83.8%.
For IRAK4 (Homo sapiens, UniProt Q9NWZ3): remaining activity read 95.2%.
The remaining activity was 99.9% (AKT3 (Homo sapiens, UniProt Q9Y243)).
For MAPK13 (Homo sapiens, UniProt O15264): remaining activity read 99%.
For MAP3K10 (Homo sapiens, UniProt Q02779): remaining activity read 90.3%.
For BTK (Homo sapiens, UniProt Q06187): remaining activity read 86.3%.
MAP2K6 (Homo sapiens, UniProt P52564) — remaining activity: 88.9%.
MAPK12 (Homo sapiens, UniProt P53778) — remaining activity: 102%.
It gave 87.4% for remaining activity (Cyclin-dependent kinase 9, with cyclin T1 (CDK9, Homo sapiens, UniProt P50750)).
It gave 87.1% for remaining activity (CHEK1 (Homo sapiens, UniProt O14757)).
For PLK2 (Homo sapiens, UniProt Q9NYY3): remaining activity read 95.9%.
For PRKCD (Homo sapiens, UniProt Q05655): remaining activity read 89.1%.
For EPHA5 (Homo sapiens, UniProt P54756): remaining activity read 91.7%.
The remaining activity was 89.1% (NEK4 (Homo sapiens, UniProt P51957)).
It gave 76.3% for remaining activity (KIT (Homo sapiens, UniProt P10721)).
For MAP4K2 (Homo sapiens, UniProt Q12851): remaining activity read 87.6%.
The remaining activity was 72.8% (LRRK2 (Homo sapiens, UniProt Q5S007)).

Series 4
SMILES: CNCc1ccccc1-c1csc([C@@H](C)Nc2nc(C)nc3cc(OC)c(OC)cc23)c1
Tested at: 1 µM
The remaining binding was 100% (PHKG2 (Homo sapiens, UniProt P15735); cell-free assay, competition with immobilised ligand).
It gave 73% for remaining binding (CSNK1A1 (Homo sapiens, UniProt P48729); cell-free assay, competition with immobilised ligand).
It gave 85% for remaining binding (Tyrosine-protein kinase ABL1, phosphorylated (ABL1, Homo sapiens, UniProt P00519, Q252H); cell-free assay, competition with immobilised ligand).
The remaining binding was 91% (SIK1 (Homo sapiens, UniProt P57059); competition binding).
For FLT3 (Homo sapiens, UniProt P36888, R834Q); cell-free assay, competition with immobilised ligand: remaining binding read 79%.
The remaining binding was 91% (PDGFRB (Homo sapiens, UniProt P09619); cell-free assay, competition with immobilised ligand).
The remaining binding was 92% (STK17B (Homo sapiens, UniProt O94768); cell-free assay, competition with immobilised ligand).
DMPK (Homo sapiens, UniProt Q09013); cell-free assay, competition with immobilised ligand — remaining binding: 86%.
For STK11 (Homo sapiens, UniProt Q15831); cell-free assay, competition with immobilised ligand: remaining binding read 96%.
For CSNK1G1 (Homo sapiens, UniProt Q9HCP0); cell-free assay, competition with immobilised ligand: remaining binding read 88%.
It gave 90% for remaining binding (GSK3B (Homo sapiens, UniProt P49841); cell-free assay, competition with immobilised ligand).
TSSK1B (Homo sapiens, UniProt Q9BXA7); cell-free assay, competition with immobilised ligand — remaining binding: 59%.
For SBK1 (Homo sapiens, UniProt Q52WX2); cell-free assay, competition with immobilised ligand: remaining binding read 100%.
The remaining binding was 82% (CDK2 (Homo sapiens, UniProt P24941); cell-free assay, competition with immobilised ligand).
It gave 83% for remaining binding (NEK4 (Homo sapiens, UniProt P51957); cell-free assay, competition with immobilised ligand).
FLT3 (Homo sapiens, UniProt P36888, D835Y); cell-free assay, competition with immobilised ligand — remaining binding: 84%.
For ANKK1 (Homo sapiens, UniProt Q8NFD2); cell-free assay, competition with immobilised ligand: remaining binding read 76%.
The remaining binding was 96% (PRPF4B (Homo sapiens, UniProt Q13523); cell-free assay, competition with immobilised ligand).
KIT (Homo sapiens, UniProt P10721); cell-free assay, competition with immobilised ligand — remaining binding: 100%.
SYK (Homo sapiens, UniProt P43405); cell-free assay, competition with immobilised ligand — remaining binding: 100%.
Aurora kinase A (AURKA, Homo sapiens, UniProt O14965); cell-free assay, competition with immobilised ligand — remaining binding: 73%.
For MAP4K3 (Homo sapiens, UniProt Q8IVH8); cell-free assay, competition with immobilised ligand: remaining binding read 99%.
MAPKAPK5 (Homo sapiens, UniProt Q8IW41); cell-free assay, competition with immobilised ligand — remaining binding: 88%.
For CDK4 (Homo sapiens, UniProt P11802); cell-free assay, competition with immobilised ligand: remaining binding read 100%.
BTK (Homo sapiens, UniProt Q06187); cell-free assay, competition with immobilised ligand — remaining binding: 90%.

Repeated from above (series 3):
The remaining activity was 93.6% (WNK2 (Homo sapiens, UniProt Q9Y3S1)).
For MKNK2 (Homo sapiens, UniProt Q9HBH9): remaining activity read 94.8%.
For PLK2 (Homo sapiens, UniProt Q9NYY3): remaining activity read 95.9%.
For MAPK13 (Homo sapiens, UniProt O15264): remaining activity read 99%.
